# Measured values gathered from unrelated publications.
# Each line is one published result; not all experiments were run side by side. Values joined by “and” are separate records of one study, mostly repeats; a detail may differ. ± gives the spread as reported.
# UniProt P51575, sequence (whole entry, looked up): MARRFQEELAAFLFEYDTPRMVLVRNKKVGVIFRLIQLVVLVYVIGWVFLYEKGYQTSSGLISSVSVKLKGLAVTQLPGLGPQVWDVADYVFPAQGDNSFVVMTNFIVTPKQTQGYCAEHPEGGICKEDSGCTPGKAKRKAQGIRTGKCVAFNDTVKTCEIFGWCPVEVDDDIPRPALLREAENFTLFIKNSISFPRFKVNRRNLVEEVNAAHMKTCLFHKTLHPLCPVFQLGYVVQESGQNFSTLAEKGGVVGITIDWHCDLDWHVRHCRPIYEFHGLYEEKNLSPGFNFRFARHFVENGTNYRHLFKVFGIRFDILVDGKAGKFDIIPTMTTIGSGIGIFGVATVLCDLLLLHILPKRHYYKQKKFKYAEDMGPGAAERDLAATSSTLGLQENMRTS
# UniProt O15305, sequence (whole entry, looked up): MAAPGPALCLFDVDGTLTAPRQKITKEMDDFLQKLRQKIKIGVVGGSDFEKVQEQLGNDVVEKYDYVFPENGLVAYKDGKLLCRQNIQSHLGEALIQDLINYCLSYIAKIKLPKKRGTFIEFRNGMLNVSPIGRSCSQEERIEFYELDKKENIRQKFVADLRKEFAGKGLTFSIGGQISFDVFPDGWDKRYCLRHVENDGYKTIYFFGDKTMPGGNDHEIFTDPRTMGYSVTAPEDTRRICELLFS
# UniProt Q13133, sequence (whole entry, looked up): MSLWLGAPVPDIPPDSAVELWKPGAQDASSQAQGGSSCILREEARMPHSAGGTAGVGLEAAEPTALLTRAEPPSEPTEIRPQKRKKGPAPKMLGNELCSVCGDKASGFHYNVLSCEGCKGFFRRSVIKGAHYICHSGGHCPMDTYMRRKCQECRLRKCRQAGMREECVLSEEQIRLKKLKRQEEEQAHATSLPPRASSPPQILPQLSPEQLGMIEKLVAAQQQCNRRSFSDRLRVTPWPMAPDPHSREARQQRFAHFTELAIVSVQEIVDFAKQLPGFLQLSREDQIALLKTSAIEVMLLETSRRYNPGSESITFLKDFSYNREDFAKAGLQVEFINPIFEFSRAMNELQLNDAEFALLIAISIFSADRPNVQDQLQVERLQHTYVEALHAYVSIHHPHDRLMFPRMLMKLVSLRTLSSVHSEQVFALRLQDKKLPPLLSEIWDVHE
# UniProt P31941, sequence (whole entry, looked up): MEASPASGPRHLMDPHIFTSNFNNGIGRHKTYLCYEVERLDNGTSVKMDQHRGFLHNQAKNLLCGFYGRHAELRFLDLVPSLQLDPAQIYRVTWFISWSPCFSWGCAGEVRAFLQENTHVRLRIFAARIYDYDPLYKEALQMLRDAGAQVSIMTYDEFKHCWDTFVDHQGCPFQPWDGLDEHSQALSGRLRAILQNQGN
# UniProt P02749, sequence (whole entry, unmodified, looked up): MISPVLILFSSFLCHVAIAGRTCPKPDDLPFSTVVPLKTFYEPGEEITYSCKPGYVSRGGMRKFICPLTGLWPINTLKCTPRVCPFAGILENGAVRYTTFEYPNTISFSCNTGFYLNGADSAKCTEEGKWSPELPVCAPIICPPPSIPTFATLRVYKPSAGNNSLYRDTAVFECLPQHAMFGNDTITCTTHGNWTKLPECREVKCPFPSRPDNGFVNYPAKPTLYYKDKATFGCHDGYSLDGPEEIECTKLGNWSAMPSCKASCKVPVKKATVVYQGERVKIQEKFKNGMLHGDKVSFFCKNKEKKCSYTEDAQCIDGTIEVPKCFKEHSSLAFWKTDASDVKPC
# UniProt P25963, sequence (whole entry, unmodified, looked up): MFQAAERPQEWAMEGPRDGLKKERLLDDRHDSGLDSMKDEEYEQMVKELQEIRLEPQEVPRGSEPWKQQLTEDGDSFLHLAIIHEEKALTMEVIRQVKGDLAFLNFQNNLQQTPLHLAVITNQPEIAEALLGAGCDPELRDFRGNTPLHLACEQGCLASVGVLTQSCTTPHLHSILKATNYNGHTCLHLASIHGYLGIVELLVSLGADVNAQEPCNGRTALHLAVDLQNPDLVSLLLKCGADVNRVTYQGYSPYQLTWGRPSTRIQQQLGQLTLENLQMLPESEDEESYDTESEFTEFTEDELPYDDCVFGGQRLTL
# UniProt P00519, sequence (whole entry, unmodified, looked up): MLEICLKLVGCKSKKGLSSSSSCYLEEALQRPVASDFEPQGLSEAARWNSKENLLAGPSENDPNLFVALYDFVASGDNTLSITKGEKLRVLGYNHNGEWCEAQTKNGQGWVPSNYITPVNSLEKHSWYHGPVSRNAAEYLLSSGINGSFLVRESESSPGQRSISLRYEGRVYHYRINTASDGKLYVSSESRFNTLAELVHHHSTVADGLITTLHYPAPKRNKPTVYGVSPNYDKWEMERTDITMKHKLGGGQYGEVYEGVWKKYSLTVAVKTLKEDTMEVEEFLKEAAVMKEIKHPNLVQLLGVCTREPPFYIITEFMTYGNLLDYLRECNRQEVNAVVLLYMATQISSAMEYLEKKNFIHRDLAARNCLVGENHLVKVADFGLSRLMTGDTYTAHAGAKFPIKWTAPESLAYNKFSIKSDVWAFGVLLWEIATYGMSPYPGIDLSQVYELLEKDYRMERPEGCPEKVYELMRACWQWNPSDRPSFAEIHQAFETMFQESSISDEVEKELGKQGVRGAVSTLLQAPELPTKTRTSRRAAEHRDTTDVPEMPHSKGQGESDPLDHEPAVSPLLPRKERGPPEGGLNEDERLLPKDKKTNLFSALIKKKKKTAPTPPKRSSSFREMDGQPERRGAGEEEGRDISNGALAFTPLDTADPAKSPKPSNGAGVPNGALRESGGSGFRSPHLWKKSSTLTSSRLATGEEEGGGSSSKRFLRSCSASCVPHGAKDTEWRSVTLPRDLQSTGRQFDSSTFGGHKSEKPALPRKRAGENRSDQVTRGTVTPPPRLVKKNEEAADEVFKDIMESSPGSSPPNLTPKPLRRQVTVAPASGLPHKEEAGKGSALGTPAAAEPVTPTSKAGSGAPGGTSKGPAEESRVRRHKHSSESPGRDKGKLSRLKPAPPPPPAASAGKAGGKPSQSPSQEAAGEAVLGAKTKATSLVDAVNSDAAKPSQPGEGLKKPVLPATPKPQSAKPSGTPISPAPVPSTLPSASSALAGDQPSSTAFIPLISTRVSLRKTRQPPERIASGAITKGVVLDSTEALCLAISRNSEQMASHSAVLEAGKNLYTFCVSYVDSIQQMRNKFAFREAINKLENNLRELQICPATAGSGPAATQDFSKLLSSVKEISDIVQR
# UniProt P11388, sequence (whole entry, looked up): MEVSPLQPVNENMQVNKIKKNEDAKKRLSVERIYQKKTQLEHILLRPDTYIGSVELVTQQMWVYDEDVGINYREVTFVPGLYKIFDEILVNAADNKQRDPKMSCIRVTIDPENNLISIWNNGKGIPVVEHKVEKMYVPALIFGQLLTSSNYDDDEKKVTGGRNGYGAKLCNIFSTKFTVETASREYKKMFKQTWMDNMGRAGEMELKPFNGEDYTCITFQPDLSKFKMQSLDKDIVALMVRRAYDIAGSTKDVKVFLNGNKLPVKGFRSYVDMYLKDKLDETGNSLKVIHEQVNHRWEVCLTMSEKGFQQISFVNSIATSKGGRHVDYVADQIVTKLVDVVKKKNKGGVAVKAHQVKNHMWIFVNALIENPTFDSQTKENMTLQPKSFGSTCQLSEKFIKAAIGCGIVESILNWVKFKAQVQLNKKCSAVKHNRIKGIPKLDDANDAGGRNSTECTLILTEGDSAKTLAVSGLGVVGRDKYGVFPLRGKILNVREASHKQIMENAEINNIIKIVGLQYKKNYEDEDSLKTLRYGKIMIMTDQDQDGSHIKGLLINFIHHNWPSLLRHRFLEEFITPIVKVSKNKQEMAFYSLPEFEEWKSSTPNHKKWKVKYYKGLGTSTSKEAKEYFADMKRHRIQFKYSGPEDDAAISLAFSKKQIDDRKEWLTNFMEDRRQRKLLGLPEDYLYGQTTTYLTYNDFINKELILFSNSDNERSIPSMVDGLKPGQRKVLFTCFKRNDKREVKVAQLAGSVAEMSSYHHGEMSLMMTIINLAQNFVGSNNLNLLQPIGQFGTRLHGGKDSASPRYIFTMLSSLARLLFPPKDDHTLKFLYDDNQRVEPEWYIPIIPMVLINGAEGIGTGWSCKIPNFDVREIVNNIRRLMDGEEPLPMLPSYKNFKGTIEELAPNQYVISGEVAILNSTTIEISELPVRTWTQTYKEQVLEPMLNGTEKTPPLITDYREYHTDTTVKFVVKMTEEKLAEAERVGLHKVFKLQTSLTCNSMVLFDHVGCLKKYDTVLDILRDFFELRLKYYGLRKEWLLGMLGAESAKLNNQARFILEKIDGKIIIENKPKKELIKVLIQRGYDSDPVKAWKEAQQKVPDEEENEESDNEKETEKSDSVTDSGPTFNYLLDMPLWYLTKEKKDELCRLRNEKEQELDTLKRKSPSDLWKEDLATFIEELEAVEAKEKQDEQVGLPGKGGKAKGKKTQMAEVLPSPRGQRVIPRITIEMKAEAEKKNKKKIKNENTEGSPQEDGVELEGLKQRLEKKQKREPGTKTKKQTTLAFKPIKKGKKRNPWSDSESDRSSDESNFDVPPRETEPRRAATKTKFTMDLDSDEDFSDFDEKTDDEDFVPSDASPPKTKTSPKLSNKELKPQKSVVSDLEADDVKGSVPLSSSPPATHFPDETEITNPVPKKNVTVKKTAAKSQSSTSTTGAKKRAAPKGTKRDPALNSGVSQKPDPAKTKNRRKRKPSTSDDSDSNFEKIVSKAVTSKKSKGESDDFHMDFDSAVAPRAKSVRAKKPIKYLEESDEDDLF
# UniProt P50613, sequence (whole entry, looked up): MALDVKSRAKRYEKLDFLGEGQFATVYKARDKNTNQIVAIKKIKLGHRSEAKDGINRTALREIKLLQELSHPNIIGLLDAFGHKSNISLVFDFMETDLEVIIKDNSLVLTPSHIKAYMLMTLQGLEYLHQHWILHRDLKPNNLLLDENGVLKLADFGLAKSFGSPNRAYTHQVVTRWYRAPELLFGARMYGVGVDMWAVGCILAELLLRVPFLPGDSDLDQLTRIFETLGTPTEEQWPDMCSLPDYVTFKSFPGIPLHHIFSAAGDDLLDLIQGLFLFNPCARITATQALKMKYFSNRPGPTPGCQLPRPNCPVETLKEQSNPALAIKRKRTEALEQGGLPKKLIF
Structure (SMILES),target,test,test system,conditions,scale,endpoint,value
CC[C@@H]1[C@H](F)C(=O)N[C@@H]1COc1nccc2cc(C(N)=O)c(OC)cc12,"CDK7 (Homo sapiens, UniProt P50613)","ATP-site probe binding, ActivX profiling",THP-1 cell lysate,"0.2 mM, Lys1 site",,inhibition,-1.1%
CC[C@H](C)[C@H](NC(=O)[C@H](CCCNC(=N)N)NC(=O)[C@H](Cc1c[nH]cn1)NC(=O)[C@H](CCCNC(=N)N)NC(=O)[C@H](CC(=O)O)NC(=O)[C@H](CC(=O)O)NC(=O)[C@@H](NC(=O)[C@H](CC(=O)O)NC(=O)[C@@H]1CCCN1C(=O)[C@@H](N)CC(C)C)[C@@H](C)O)C(=O)N[C@@H](CCC(=O)O)C(=O)N[C@@H](CCC(=O)O)C(=O)N[C@@H](CCCCN)C(=O)N[C@@H](CCCNC(=N)N)C(=O)N[C@@H](CCCCN)C(=O)N[C@@H](CCCNC(=N)N)C(=O)N[C@H](C(=O)N[C@@H](C)C(=O)N[C@@H](CCC(=O)O)C(=O)N[C@H](C(=O)N[C@@H](Cc1ccccc1)C(=O)N[C@@H](CCCCN)C(=O)N[C@@H](CO)C(=O)N[C@H](C(=O)N[C@@H](CCSC)C(=O)N[C@@H](CCCCN)C(=O)N[C@@H](CCCCN)C(=O)N[C@@H](CO)C(=O)N1CCC[C@H]1C(=O)N[C@@H](Cc1ccccc1)C(=O)N[C@@H](CC(N)=O)C(=O)NCC(=O)N1CCC[C@H]1C(=O)O)[C@@H](C)CC)[C@@H](C)O)[C@@H](C)O,"NF-kappa-B inhibitor alpha (Homo sapiens, UniProt P25963)","binding, ITC",,"pH 7.5, 293 K, 50 mM NaCl",,-TΔS,-5.2 ± 0.1 kcal/mol
O=C1C[C@@H](c2ccccc2)Oc2cc(O)cc(O)c21,"Aryl hydrocarbon receptor (Danio rerio, UniProt Q9YGV3)","reporter gene, agonist, luciferase reporter",ZF-4,13.72 µM,relative to: vehicle control,fold change,1.07
CCOC(=O)C(C)c1n[nH]c2nc(N)[nH]c(=O)c2c1=O (stereo not shown),"folP (Bacteria, UniProt P0AC13)",CETSA HiBiT,whole cells,,,melting temperature,63.5 °C
CC1CCCN1c1nccc(-c2cnn3ncccc23)n1 (stereo not shown),"ABL1 (Homo sapiens, UniProt P00519, H396P)",KINOMEscan,,1 µM,,remaining binding,82%
Nc1ncnc2c1ncn2[C@@H]1O[C@H](COP(=O)(O)CP(=O)(O)OP(=O)(O)O)[C@@H](O)[C@H]1O,"P2X purinoceptor 1 (P2RX1, Homo sapiens, UniProt P51575)",saturation binding,HEK293,103 nM,,specific binding,9210 CCPM and 8570 CCPM and 10200 CCPM and 4650 CCPM and 4760 CCPM
COc1cc(Nc2ncc3c(n2)-c2ccc(Cl)cc2C(c2c(F)cccc2OC)=NC3)ccc1C(=O)O,STK4,kinase activity,,1 µM,,remaining activity,96%
O=C(Nc1cccc(O)c1O)c1cc2ccccc2oc1=O,"Alpha-synuclein (SNCA, Homo sapiens, UniProt P37840)",fibril formation,,100 µM,relative to: untreated,ThT fluorescence,10.7 ± 0.2%
O=C(COP(=O)(O)O)[C@@H](O)[C@H](O)[C@H](O)COP(=O)(O)O,"PMM2 (Homo sapiens, UniProt O15305)",,,"0.1 mM, unit not given",relative to: activity at 0 mM set to 100,enzyme activity,95.1 and 90 and 92.7
O=c1nc(SCc2cc(F)cc(C(F)(F)F)c2)nc(SCc2csc3ccc(Cl)cc23)[nH]1,"TOP2A (Homo sapiens, UniProt P11388)",DNA relaxation,,15.6 µM,,mean relaxed DNA,2.6%
CO[C@H]1O[C@H](COS(=O)(=O)O)[C@@H](O[C@@H]2O[C@@H](C(=O)O)[C@@H](O[C@H]3O[C@H](COS(=O)(=O)O)[C@@H](O[C@@H]4O[C@H](C(=O)O)[C@@H](O[C@H]5O[C@H](COS(=O)(=O)O)[C@@H](O)[C@H](O)[C@H]5NS(=O)(=O)O)[C@H](O)[C@H]4O)[C@H](OS(=O)(=O)O)[C@H]3NS(=O)(=O)O)[C@H](O)[C@H]2OS(=O)(=O)O)[C@H](O)[C@H]1NS(=O)(=O)O,"Beta-2-glycoprotein 1, domain V (APOH, Homo sapiens, UniProt P02749, V266L)",isothermal titration calorimetry,,"298 K, together with: 150 mM NaCl",,binding free energy ΔG,-6.03 kcal/mol
CCN1CCN(c2cc(N3CCN(CC)CC3)nc(NCCNc3ccnc4cc(Cl)ccc34)n2)CC1,"NR1H3 (Homo sapiens, UniProt Q13133)","reporter gene, Gal4 hybrid reporter",,20 µM,relative to: vehicle,activation,1.61 fold
CCCCCCCCCCCCC/C=C/[C@@H](O)[C@H](CO)NC(=O)CCCCCCCCCCCCCCCCCCC,"Protein SET (SET, Homo sapiens, UniProt Q01105)","lipid binding, GFP pull-down LC-MS/MS",A549 overexpressing GFP-tagged protein,,relative to: eluate plus flow-through,lipid fraction bound,18.2%
O=C(Nc1cccc2c(=O)cc(-c3nnn[nH]3)oc12)c1ccc(OCCCCc2ccccc2)cc1,"Volume-regulated anion channel subunit LRRC8C, part LRRC8A IL1 chimera (LRRC8C, Homo sapiens, UniProt Q8TDW0, E6A)","ion current, inhibitor, whole-cell patch clamp","HCT116 LRRC8 knockout, transfected","3 µM, at -100 mV",,inhibition,81.9%
CCC1(O)CCCN(C(=O)c2ccc(-c3ccc(F)c(NC(=O)CCl)c3)cc2)C1 (stereo not shown),"DNA dC->dU-editing enzyme APOBEC-3A (Homo sapiens, UniProt P31941)","covalent adduct, intact protein MS",,"3 h, 5-fold excess, 125 µM",,unmodified protein,0%
N#Cc1ccc(C[C@H](NC(=O)c2cc3ccccc3[nH]2)C(=O)N2CCc3ccccc32)cc1,"FPR2 (Homo sapiens, UniProt P25090)",cell-based,,concentration not given,,activity,inactive

# Repeated from above:
Structure (SMILES),target,test,test system,conditions,scale,endpoint,value
CCN1CCN(c2cc(N3CCN(CC)CC3)nc(NCCNc3ccnc4cc(Cl)ccc34)n2)CC1,"NR1H3 (Homo sapiens, UniProt Q13133)","reporter gene, Gal4 hybrid reporter",,20 µM,relative to: vehicle,activation,1.61 fold
CCCCCCCCCCCCC/C=C/[C@@H](O)[C@H](CO)NC(=O)CCCCCCCCCCCCCCCCCCC,"Protein SET (SET, Homo sapiens, UniProt Q01105)","lipid binding, GFP pull-down LC-MS/MS",A549 overexpressing GFP-tagged protein,,relative to: eluate plus flow-through,lipid fraction bound,18.2%
